# Measurements collected from several papers.
# Protocols differ between the studies behind these lines. ± marks the error that the study gave.
# USP5 ZnF-UBD domain: Ubiquitin carboxyl-terminal hydrolase 5, ZnF-UBD domain (USP5, Homo sapiens, UniProt P45974)
# UniProt P45974, sequence (whole entry, looked up): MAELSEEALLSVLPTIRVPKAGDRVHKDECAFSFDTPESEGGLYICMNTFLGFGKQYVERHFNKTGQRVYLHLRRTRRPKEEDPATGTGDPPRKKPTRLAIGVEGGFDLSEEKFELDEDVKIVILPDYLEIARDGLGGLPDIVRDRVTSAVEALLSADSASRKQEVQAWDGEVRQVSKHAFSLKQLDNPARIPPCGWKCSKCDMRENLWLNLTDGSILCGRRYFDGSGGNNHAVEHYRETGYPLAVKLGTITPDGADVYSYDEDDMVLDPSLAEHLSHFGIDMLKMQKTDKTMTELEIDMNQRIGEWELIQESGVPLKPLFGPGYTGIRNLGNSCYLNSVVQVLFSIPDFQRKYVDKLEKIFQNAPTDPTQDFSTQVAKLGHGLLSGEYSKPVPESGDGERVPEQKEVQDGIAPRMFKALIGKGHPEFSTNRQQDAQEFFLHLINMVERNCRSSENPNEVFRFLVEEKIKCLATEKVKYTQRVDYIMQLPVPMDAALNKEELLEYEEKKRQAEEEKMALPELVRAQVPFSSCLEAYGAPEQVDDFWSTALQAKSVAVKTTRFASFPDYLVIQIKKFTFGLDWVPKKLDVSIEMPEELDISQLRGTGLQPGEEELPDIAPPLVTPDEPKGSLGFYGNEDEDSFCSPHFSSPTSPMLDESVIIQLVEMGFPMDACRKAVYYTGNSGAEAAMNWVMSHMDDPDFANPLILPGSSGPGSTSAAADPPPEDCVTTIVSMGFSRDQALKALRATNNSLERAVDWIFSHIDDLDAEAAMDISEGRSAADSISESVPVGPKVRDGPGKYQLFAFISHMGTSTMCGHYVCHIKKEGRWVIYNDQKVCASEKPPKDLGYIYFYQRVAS
# PLAU: Urokinase-type plasminogen activator (PLAU, Homo sapiens, UniProt P00749)
# HDAC11: Histone deacetylase 11 (HDAC11, Homo sapiens, UniProt Q96DB2)
# UniProt Q96DB2, sequence (whole entry, looked up): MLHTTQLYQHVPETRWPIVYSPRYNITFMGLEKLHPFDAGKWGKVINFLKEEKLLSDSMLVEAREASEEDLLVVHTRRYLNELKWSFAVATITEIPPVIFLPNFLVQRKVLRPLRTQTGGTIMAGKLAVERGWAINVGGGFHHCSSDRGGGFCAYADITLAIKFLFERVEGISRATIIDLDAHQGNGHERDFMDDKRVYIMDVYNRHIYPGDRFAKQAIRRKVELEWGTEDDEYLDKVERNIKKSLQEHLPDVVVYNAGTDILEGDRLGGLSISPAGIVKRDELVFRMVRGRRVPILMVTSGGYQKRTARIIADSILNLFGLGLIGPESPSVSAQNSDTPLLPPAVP
# Tumor necrosis factor receptor superfamily member 1A extracellular domain: Tumor necrosis factor receptor superfamily member 1A, extracellular domain (Homo sapiens, UniProt P19438)
# UniProt P19438, sequence (whole entry, looked up): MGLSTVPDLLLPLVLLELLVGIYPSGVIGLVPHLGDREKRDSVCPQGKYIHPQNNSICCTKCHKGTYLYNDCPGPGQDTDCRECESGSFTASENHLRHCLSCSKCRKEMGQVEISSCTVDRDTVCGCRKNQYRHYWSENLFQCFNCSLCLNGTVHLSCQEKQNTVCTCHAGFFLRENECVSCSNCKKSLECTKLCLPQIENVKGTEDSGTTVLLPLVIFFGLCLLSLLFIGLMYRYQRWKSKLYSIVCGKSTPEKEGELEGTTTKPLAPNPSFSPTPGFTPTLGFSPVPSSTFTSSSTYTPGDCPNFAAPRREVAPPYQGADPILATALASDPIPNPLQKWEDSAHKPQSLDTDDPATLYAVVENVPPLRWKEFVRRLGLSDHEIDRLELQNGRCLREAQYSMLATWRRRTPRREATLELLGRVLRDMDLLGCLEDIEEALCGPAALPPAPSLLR
# GATD3: Glutamine amidotransferase-like class 1 domain-containing protein 3, mitochondrial (GATD3, Homo sapiens, UniProt P0DPI2)
# UniProt P0DPI2, sequence (whole entry, looked up): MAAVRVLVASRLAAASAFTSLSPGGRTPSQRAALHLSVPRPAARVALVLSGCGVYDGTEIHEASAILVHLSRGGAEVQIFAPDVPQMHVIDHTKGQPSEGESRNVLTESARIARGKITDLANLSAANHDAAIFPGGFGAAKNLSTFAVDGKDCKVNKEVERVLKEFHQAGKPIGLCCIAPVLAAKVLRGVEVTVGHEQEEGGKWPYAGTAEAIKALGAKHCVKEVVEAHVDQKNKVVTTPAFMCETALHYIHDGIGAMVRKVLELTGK
# GSPT1/CRBN with cereblon: GSPT1/CRBN, with cereblon (Homo sapiens, UniProt P15170+Q96SW2)
# UniProt P15170, sequence (whole entry, looked up): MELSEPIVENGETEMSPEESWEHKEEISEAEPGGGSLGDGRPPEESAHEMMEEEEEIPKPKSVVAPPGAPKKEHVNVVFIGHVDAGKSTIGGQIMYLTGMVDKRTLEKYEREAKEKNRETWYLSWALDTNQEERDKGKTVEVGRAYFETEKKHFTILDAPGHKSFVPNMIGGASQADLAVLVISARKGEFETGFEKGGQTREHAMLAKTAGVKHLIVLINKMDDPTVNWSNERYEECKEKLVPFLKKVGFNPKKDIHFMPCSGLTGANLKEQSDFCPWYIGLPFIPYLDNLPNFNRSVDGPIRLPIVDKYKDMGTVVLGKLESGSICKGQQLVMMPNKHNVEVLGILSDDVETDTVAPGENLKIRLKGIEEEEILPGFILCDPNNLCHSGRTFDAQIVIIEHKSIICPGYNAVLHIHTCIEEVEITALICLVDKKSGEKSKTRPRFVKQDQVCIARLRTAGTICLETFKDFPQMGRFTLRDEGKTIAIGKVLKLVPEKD
# UniProt Q96SW2, sequence (whole entry, looked up): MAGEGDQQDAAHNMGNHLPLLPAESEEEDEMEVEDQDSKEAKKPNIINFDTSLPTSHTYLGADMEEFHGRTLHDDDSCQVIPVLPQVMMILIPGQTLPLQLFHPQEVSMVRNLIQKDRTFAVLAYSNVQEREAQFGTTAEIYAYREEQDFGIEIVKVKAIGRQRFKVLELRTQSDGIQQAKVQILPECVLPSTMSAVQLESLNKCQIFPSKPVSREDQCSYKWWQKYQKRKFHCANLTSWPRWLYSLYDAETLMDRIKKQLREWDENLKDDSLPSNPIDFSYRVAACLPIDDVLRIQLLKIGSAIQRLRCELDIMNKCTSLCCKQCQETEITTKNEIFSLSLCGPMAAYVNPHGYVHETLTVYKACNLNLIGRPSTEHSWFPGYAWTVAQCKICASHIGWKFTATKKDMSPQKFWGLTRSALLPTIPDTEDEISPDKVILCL
# UniProt P05177, sequence (whole entry, looked up): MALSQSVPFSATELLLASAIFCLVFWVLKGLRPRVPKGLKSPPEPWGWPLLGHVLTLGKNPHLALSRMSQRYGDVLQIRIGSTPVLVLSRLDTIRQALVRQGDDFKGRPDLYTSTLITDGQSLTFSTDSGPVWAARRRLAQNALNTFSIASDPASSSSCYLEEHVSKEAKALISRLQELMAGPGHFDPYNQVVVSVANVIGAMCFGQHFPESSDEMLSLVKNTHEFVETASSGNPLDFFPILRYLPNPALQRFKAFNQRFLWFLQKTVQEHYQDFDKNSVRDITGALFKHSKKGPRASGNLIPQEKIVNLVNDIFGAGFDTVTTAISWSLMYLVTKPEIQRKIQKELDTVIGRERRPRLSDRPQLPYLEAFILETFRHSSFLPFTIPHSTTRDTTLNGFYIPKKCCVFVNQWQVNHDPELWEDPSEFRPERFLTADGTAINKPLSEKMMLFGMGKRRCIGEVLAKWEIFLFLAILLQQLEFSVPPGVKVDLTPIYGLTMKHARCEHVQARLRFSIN
# UniProt Q13523, sequence (whole entry, looked up): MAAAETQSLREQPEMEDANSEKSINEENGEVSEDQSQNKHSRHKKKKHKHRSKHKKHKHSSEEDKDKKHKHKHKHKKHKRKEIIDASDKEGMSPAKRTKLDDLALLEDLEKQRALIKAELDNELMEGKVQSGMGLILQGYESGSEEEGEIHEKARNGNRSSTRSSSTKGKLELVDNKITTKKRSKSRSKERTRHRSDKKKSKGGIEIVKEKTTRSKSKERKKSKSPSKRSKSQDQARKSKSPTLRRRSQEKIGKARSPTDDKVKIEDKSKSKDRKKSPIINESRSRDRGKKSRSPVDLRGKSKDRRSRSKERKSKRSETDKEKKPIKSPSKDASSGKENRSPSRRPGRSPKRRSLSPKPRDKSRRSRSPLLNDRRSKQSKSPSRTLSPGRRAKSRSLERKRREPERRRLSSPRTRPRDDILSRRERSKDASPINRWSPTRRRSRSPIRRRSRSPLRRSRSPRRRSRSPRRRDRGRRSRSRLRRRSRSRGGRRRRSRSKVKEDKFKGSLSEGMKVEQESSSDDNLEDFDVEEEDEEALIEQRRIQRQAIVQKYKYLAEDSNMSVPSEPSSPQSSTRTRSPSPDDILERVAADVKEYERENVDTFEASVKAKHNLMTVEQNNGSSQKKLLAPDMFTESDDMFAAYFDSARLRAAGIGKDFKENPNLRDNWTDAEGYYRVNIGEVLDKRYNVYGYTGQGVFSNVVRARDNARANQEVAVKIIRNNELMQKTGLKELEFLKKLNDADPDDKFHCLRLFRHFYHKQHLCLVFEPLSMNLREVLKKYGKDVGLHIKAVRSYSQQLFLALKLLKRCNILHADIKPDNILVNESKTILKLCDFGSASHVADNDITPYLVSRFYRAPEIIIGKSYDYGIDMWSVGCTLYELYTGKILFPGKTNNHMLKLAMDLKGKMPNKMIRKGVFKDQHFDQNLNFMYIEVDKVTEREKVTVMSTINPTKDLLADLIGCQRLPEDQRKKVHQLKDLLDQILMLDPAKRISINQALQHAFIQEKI
# UniProt P30994, sequence (whole entry, looked up): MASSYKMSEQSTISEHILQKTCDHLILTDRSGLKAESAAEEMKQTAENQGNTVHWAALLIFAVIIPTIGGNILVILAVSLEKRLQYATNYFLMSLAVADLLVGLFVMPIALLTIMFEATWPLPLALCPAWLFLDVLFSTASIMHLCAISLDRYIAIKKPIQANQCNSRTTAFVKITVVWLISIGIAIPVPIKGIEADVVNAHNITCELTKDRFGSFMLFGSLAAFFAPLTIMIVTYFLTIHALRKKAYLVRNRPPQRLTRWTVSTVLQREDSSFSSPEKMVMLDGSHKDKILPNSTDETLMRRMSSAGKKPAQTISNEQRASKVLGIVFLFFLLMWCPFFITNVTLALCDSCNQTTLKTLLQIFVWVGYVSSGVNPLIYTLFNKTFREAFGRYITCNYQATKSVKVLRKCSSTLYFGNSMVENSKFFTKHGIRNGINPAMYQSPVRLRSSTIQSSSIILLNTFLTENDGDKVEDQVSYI
Compound,target,test,system,setting,scale,measurement,result
O=C(O)CCc1ccccc1OCc1ccccn1,USP5 ZnF-UBD domain,,,,,Kd,> 1000 µM
COc1cc(NC(=O)c2ccc3cc(C(=N)N)ccc3c2)cc(OC(C)C)c1,PLAU,inhibitor,,pH 7.4,,Ki,0.033 µM
CC[C@@H]1[C@H](F)C(=O)N[C@@H]1COc1nccc2cc(C(N)=O)c(OC)cc12,"Serine/threonine-protein kinase PRP4 homolog (PRPF4B, Homo sapiens, UniProt Q13523)","ATP-site probe binding, ActivX profiling",THP-1 cell lysate,Lys2 site,,IC50,0.65 µM
Nc1cnc2ccccc2n1,PLAU,inhibitor,,pH 7.4,,Ki,> 50 µM
Cc1c(OS(=O)(=O)Oc2cccc(C(C)C)c2)cccc1C(=O)NO,HDAC11,,,,,Ki,0.714 µM
O=C(O)Cc1cccnc1,USP5 ZnF-UBD domain,,,,,Kd,> 1000 µM
O=C(O)c1cc(-c2ccc3occc3c2)ccn1,Tumor necrosis factor receptor superfamily member 1A extracellular domain,SPR OneStep,,immobilized target,,Kd,540 ± 119 µM
NS(=O)(=O)c1ccc(NCC(=O)O)cc1,USP5 ZnF-UBD domain,,,,,Kd,> 1000 µM
Cc1cc(OS(=O)(=O)Oc2ccc(C(C)(C)C)cc2)cc(C(=O)NO)c1,HDAC11,,,,,Ki,1.38 µM
N#C[C@@]12C[C@@H]1[C@@H](n1cnc3c(NC4CCCC4)nc(I)nc31)[C@H](O)[C@@H]2O,"5-hydroxytryptamine receptor 2B (Rattus norvegicus, UniProt P30994)","antagonist, Gq dissociation BRET",,rat receptor,,Kb,0.0672 µM
O=C(O)Cn1cnc2c(oc3ccccc32)c1=O,USP5 ZnF-UBD domain,,,,,Kd,312 µM
O=C(CCCCCN1C(=O)c2cccc3cccc(c23)C1=O)NO,GATD3,"inhibitor, competition pulldown",SW620 and MV4-11 lysate,1 h,,Kd,23.3 µM
COc1cc(NCC(=O)Nn2c(C)nc3ccc(Cl)cc3c2=O)cc(OC)c1OC,collagenase,"enzyme activity, inhibitor",,with: casein substrate,,IC50,34 ± 2.83 µg/mL
CCCCN(Cc1ccc(C(=O)NO)cc1)C(=O)Nc1ccccc1,GATD3,"inhibitor, competition pulldown",SW620 and MV4-11 lysate,1 h,,Kd,> 30.2 µM
CS(=O)(=O)NC(=O)c1cc(-c2ccc3[nH]ccc3c2)ccn1,Tumor necrosis factor receptor superfamily member 1A extracellular domain,"binding, SPR OneStep",,,,Kd,502 ± 60 µM
N=C(N)NC(=O)c1ccc(Cl)c(S(N)(=O)=O)c1,PLAU,inhibitor,,pH 7.4,,Ki,> 100 µM
Cc1ccc(C(=O)O)cc1S(=O)(=O)Nc1cccc(C(=O)CCC(=O)O)c1,USP5 ZnF-UBD domain,,,,,Kd,> 1000 µM
COc1cc(/C=N/n2c(C)nc3ccc(Br)cc3c2=O)ccc1O,collagenase,"enzyme activity, inhibitor",,with: casein substrate,,IC50,18 ± 1.41 µg/mL
Cn1nc(Nc2ccc3c(c2)CN(C2CCC(=O)NC2=O)C3=O)c2ccccc21 (stereo not shown),GSPT1/CRBN with cereblon,"degrader, HiBiT endpoint",HEK293 GSPT1-HiBiT,24 h,,DC50,> 10 µM
Cc1c(OS(=O)(=O)Oc2ccc(C(C)(C)C)cc2)cccc1C(=O)NO,HDAC11,,,,,Ki,0.581 µM
O=C1CCC(N2Cc3cc(Nc4noc5ccccc45)ccc3C2=O)C(=O)N1 (stereo not shown),"Cereblon/Casein kinase I alpha (CSNK1A1/CRBN, Homo sapiens, UniProt P48729+Q96SW2)","degrader, HiBiT endpoint",human cells,24 h,,DC50,0.002 µM
CC(C)C1c2cc(C3CC3c3cc(/C=C/C4CC4)c4cc(C(=N)N)ccc4c3)ccc2CCN1C (stereo not shown),PLAU,inhibitor,,pH 7.4,,Ki,0.009 µM
Cc1nc2ccccc2c(=O)n1NC(=O)CSc1nc2ccccc2c(=O)n1-c1ccccc1,collagenase,"enzyme activity, inhibitor",,with: casein substrate,,IC50,28.5 ± 2.12 µg/mL
Cc1ccc(C(=O)Nc2ccc3c(c2)CN(C2CCC(=O)NC2=O)C3=O)cc1 (stereo not shown),GSPT1/CRBN with cereblon,"degrader, HiBiT endpoint",HEK293 GSPT1-HiBiT,24 h,,DC50,> 10 µM
CN1CCc2c(c3ccccc3n2Cc2ccc(C(=O)NO)cc2)C1,GATD3,"inhibitor, competition pulldown",SW620 and MV4-11 lysate,1 h,,Kd,> 30.2 µM
Cc1nc2ccc(Cl)cc2c(=O)n1NC(=O)CCl,collagenase,"enzyme activity, inhibitor",,with: casein substrate,,IC50,12.5 ± 2.12 µg/mL
O=C1CCC(N2Cc3cc(Nc4nc5ccccc5o4)ccc3C2=O)C(=O)N1 (stereo not shown),GSPT1/CRBN with cereblon,"degrader, HiBiT endpoint",HEK293 GSPT1-HiBiT,24 h,,DC50,> 10 µM
O=C(O)CSc1nnc(NC(=O)COc2ccccc2)s1,USP5 ZnF-UBD domain,,,,,Kd,315 µM
CSc1ccccc1C(=O)NCCn1cc(C(=O)NCc2cccc(C)n2)c(=O)c2cc3c(cc21)OCO3,"Cytochrome P450 1A2 (CYP1A2, Homo sapiens, UniProt P05177)","enzyme activity, inhibitor",human liver microsomes,"20 min, 30 min NADPH preincubation, with: phenacetin 50 µM",,IC50,> 100 µM
O=C(O)CCN1C(=O)c2ccccc2S1(=O)=O,USP5 ZnF-UBD domain,,,,,Kd,> 1000 µM
CN(CC#N)C(=O)c1ccc2ccc(N)nc2c1,PLAU,inhibitor,,pH 7.4,,Ki,> 100 µM
NC(=O)[C@H]1CCCN1C(=O)CCC(=O)O,USP5 ZnF-UBD domain,,,,,Kd,265 µM
COc1cc[nH]c1/C=C1\C(=O)Nc2ccc([N+](=O)[O-])c(N3CC[C@@H](O)C3)c21,"CMGC kinases (CDK, CLK, DYRK, GSK, SRPK)","enzyme activity, KinaseProfiler",,1 µM,baseline: DMSO,remaining activity,< 10%
COc1cc(/C=N/n2c(C)nc3ccc(C)cc3c2=O)ccc1OCc1ccccc1,collagenase,"enzyme activity, inhibitor",,with: casein substrate,,IC50,53.5 ± 3.07 µg/mL
Cc1ncsc1-c1ccc([C@H](C)NC(=O)[C@@H]2C[C@@H](O)CN2C(=O)[C@@H](NC(=O)CCCCCCCS(=O)(=O)NC(=O)c2nc(N3CCc4cccc(C(=O)Nc5nc6ccccc6s5)c4C3)ccc2-c2cnn(CC34CC5CC(CC(C5)C3)C4)c2C)C(C)(C)C)cc1,"Bcl-2-like protein 1 (BCL2L1, Homo sapiens, UniProt Q07817)","degrader, western blot",MOLT-4,16 h,,DC50,0.00043 µM
N#Cc1cccc(C(=O)Nc2ccc3c(c2)CN(C2CCC(=O)NC2=O)C3=O)c1 (stereo not shown),GSPT1/CRBN with cereblon,"degrader, HiBiT endpoint",HEK293 GSPT1-HiBiT,24 h,,DC50,> 10 µM
NCc1cc2c(cc1F)C(=O)N(C1CCC(=O)NC1=O)C2 (stereo not shown),"GSPT1/CRBN (Homo sapiens, UniProt P15170+Q96SW2)","degrader, Western blot",Hep3B,24 h,,DC50,0.001 µM
O=C(O)c1ccc(-c2ccc(F)cc2)cn1,Tumor necrosis factor receptor superfamily member 1A extracellular domain,"binding, SPR OneStep injection",,fragment screen,,Kd,≤ 1500 µM
N=C(N)c1ccc2ccccc2c1,PLAU,inhibitor,,pH 7.4,,Ki,5.91 µM
Cc1ccccc1C(=O)Nc1ccc2c(c1)CN(C1CCC(=O)NC1=O)C2=O (stereo not shown),GSPT1/CRBN with cereblon,"degrader, HiBiT endpoint",HEK293 GSPT1-HiBiT,24 h,,DC50,> 10 µM
